Published values from different studies.
Each line is one published result; not all experiments were run side by side.
Target: Aurora kinase C (AURKC, Homo sapiens, UniProt Q9UQB9)

Nc1ncc(-c2cc(-c3cnn(CC(F)(F)F)c3)ncc2F)nc1C(=O)NC1CNCC(F)C1 (stereo not drawn)  remaining activity (enzyme activity; 1 µM; reference: DMSO control): 70.3%
COc1ccc(NC(=O)Nc2ccc3c(c2)C(=O)N(C(C)CO)CC(C)C(CN(C)Cc2ccc4c(c2)OCO4)O3)cc1 (stereo not drawn)  remaining activity (kinase activity; 0.03 µM; reference: control): 31%
NC(=O)C[C@H]1CCc2sc3ncnc(O[C@H]4CC[C@H](N5CCOCC5)CC4)c3c21  inhibition (enzyme activity, inhibitor; 10 µM): 8%
Cc1cccc(O[C@H]2CCC[C@@H](C(C)CNCc3ccncc3)C2)c1 (relative stereo)  inhibition (cell-free assay; 1 µM): 1%
COc1ccc(C(=O)/C=C/c2ccccc2-c2c[nH]c3ccc(C#N)cc23)c(O)c1  inhibition (enzyme activity, inhibitor; 20 µM): 4%
CN1C[C@@H](c2c[nH]c3cc(Br)ccc23)NC[C@@H]1c1c[nH]c2cc(Br)ccc12  remaining activity (enzyme activity, inhibitor; 10 µM): 85%
C=CC(=O)N1CCCC(n2c(=O)c3ncccc3n(Cc3ccc(Oc4ccccc4)cc3)c2=O)C1 (stereo not drawn)  remaining binding (cell-free assay, competition with immobilised ligand; 1 µM): 100%
C=CC(=O)N1CCc2ccc(-n3c(=O)ccc4cnc5ccc(-c6cnn(C)c6)cc5c43)cc21  remaining binding (KINOMEscan; 1 µM; reference: DMSO control): 78%
CNC(=O)C1CCN(c2cc(C)c(F)cc2NC(=O)c2ccc(-c3cc(O)ccc3C)c(C)c2)CC1  remaining binding (binding, competition with immobilised ligand; 1 µM): 100%
Nc1ncc2c(n1)-c1c([nH]c3ccc(C4=CCOCC4)cc13)CCC2  remaining binding (binding, competition with immobilised ligand; 1 µM): 100%
CNC1C[S+]2CC[S+]3CC[S+](C1)[Ru-4]321([N]=C=S)[n]2c3ccc(OC)cc3c3c4c(c5cc(F)c[n+]1c5c32)C(=O)NC4=O (stereo not drawn)  remaining binding (KinomeScan; 0.1 µM; reference: untreated): 93%
O=C(Cc1ccc(OCc2ccccc2)cc1)NC1(C(=O)O)CCN(C(=O)c2ccc(-c3cccc(Cl)c3)cc2)CC1  activity vs control (enzyme activity, inhibitor; 10 µM): 98%
C=CC(=O)Nc1cccc(-c2cnc3[nH]cc(C(=O)NC(C)(C)C)c3n2)c1  inhibition (enzyme activity, inhibitor; 0.1 µM): 12%
COc1c(Cl)cccc1Nc1c(-c2ccncc2C#C[C@@]2(C)CCCN2C(=O)/C=C/CN(C)C)[nH]c2c1C(=O)NCC2  remaining binding (binding, competition with immobilised ligand; 3 µM): 94%
CNC(=O)C[C@H](Cc1ccc(C#N)cc1)NC(=O)c1cc(-c2ccc(CN[C@H](C)c3ccc(C)cc3)o2)ccc1Cl  activity vs control (enzyme activity, inhibitor; 1 µM): 103%

For quick reference, copied from above:
CNC(=O)C1CCN(c2cc(C)c(F)cc2NC(=O)c2ccc(-c3cc(O)ccc3C)c(C)c2)CC1  remaining binding (binding, competition with immobilised ligand; 1 µM): 100%
